Assay results pooled from the literature.
Each numbered part is a random draw from the data of one study; scales do not carry over between parts. “And” joins repeats or separate records; there may be more than shown.
Chain of UniProt Q6PHR2 (whole entry, looked up): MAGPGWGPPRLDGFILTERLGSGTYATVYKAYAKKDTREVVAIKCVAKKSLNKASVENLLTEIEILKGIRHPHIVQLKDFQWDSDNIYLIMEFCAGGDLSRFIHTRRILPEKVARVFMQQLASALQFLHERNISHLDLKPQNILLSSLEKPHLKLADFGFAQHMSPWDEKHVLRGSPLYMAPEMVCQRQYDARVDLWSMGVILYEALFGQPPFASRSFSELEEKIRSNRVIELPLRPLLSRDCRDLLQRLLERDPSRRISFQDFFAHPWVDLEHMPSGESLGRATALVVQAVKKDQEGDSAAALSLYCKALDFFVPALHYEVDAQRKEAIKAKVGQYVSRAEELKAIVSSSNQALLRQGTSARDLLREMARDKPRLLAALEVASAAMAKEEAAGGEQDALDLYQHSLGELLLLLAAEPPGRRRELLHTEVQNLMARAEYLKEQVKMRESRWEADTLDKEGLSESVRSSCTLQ
Chain of UniProt Q02763 (whole entry, looked up): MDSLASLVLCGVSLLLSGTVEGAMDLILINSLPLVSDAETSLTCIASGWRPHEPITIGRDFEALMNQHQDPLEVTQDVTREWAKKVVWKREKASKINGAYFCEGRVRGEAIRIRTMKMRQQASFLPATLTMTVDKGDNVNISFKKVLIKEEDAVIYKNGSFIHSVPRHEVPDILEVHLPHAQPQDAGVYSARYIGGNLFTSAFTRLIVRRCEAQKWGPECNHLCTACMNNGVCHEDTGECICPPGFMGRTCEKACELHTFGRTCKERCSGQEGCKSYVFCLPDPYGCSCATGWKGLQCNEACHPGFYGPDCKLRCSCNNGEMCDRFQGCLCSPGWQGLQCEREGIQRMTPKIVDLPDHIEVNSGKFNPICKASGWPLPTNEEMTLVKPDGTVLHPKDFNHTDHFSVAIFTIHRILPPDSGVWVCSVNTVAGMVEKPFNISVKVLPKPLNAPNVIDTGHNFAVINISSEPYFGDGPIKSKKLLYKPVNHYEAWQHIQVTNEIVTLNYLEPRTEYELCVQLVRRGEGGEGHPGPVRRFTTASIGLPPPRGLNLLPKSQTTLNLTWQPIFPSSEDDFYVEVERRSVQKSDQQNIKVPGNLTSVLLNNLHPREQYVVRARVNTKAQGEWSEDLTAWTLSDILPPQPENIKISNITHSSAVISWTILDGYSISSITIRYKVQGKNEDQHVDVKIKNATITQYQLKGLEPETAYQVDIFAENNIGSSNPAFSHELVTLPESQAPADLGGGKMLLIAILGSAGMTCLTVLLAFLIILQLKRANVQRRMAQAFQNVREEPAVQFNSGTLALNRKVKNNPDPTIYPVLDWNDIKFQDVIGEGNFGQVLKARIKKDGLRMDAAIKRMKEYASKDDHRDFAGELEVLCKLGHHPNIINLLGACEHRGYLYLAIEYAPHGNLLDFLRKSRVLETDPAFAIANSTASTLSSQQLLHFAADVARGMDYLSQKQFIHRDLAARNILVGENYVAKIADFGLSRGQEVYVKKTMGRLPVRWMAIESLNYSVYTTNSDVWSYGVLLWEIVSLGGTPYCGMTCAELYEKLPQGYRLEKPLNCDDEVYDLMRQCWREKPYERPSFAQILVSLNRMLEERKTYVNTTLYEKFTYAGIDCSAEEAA
Chain of UniProt P52333 (whole entry, looked up): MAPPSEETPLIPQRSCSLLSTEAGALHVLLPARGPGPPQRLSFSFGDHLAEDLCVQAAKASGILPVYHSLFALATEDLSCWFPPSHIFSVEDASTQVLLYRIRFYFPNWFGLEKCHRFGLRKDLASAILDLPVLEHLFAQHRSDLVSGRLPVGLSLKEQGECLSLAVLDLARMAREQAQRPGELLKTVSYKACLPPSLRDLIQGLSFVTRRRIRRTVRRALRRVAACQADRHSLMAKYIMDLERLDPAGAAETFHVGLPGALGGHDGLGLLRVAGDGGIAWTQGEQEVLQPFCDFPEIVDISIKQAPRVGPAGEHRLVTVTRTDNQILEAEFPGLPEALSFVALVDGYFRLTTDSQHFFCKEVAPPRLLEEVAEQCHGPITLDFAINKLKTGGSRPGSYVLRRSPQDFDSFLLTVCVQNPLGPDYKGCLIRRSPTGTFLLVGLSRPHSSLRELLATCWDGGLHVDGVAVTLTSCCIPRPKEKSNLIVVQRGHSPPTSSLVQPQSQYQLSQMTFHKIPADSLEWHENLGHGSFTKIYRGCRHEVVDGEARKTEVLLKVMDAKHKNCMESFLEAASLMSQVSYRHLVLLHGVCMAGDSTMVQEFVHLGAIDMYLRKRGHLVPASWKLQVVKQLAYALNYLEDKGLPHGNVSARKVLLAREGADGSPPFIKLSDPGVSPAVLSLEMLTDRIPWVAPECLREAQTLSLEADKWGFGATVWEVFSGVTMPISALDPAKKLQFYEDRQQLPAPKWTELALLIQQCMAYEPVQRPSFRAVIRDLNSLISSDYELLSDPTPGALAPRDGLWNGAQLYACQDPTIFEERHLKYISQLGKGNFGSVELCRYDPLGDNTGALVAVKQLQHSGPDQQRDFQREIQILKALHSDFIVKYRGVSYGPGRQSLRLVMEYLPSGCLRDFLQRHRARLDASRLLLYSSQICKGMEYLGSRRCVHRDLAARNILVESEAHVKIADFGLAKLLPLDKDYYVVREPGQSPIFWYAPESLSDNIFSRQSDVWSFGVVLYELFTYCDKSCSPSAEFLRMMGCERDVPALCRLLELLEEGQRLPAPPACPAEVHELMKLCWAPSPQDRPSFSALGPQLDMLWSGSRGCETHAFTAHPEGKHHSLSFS
Chain of UniProt O96017 (whole entry, looked up): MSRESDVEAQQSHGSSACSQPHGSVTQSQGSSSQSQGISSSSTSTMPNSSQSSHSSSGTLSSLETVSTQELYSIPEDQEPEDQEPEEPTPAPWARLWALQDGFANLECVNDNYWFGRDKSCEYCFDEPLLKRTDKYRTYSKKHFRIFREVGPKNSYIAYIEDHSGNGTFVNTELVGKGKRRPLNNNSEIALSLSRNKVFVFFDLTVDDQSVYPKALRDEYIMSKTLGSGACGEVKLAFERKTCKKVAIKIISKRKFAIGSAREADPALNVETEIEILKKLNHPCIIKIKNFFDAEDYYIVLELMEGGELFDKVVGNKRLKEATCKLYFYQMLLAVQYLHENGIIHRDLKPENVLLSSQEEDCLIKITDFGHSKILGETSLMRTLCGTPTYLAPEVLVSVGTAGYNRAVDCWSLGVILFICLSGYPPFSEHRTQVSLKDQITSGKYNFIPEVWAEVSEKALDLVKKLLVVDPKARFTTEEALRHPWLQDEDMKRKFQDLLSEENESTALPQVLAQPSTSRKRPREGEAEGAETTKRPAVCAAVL
Chain of UniProt P36896 (whole entry, looked up): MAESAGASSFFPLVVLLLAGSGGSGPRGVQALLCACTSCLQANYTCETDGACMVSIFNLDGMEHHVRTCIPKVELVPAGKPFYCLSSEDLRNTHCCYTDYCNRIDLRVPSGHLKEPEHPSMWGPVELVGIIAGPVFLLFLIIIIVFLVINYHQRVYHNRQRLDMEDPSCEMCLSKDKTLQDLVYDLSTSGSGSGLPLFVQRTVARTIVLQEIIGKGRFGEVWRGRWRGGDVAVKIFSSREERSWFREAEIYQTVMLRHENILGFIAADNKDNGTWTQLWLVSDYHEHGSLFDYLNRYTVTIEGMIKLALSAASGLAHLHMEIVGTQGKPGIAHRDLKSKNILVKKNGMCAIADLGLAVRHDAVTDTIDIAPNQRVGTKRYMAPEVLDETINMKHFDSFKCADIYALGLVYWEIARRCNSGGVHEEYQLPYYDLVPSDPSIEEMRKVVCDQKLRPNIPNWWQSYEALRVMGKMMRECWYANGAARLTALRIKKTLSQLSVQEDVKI
Chain of UniProt Q9Y6M4 (whole entry, looked up): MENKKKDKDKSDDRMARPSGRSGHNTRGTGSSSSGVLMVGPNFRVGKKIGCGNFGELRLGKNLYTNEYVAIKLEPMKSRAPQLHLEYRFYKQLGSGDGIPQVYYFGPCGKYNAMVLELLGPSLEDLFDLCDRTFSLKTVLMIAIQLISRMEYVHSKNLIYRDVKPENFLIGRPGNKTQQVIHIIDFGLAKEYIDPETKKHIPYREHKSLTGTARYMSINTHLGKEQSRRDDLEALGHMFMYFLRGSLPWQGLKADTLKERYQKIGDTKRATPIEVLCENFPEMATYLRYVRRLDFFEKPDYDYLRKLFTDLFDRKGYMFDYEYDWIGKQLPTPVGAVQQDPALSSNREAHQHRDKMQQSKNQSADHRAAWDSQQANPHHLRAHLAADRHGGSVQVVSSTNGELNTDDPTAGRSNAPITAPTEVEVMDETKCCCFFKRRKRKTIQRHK
Chain of UniProt O15111 (whole entry, looked up): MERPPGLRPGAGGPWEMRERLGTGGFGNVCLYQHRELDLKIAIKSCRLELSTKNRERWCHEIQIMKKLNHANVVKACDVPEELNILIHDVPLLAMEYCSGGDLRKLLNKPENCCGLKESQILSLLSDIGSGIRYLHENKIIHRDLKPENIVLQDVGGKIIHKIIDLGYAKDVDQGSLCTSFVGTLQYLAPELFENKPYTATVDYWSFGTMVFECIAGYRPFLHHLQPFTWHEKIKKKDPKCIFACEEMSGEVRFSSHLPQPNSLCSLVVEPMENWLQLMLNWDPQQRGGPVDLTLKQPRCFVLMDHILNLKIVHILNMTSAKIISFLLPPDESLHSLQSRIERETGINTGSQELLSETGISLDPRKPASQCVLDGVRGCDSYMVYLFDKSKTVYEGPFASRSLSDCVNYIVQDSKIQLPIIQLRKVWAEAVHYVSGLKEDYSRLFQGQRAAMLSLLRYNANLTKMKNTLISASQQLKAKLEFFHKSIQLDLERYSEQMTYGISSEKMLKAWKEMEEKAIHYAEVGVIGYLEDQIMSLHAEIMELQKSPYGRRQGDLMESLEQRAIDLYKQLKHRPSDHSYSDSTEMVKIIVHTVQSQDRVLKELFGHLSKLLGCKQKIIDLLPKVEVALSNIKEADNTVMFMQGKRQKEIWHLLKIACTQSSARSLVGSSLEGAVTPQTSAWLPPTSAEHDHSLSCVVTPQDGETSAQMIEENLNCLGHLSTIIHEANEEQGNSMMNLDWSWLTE

Block 1
Compound: c1ccc(Oc2ccc(Nc3c4c(nc5ccccc35)CCC4)cc2)cc1
Organism: Leishmania donovani
Strain: DD8
For parasite viability, resazurin; promastigotes; 0.016 µM: inhibition read 0% and -2%.
parasite killing; intracellular amastigotes; 0.08 µM, 72 h — inhibition: 15% and 16%.
The inhibition was 99% (parasite killing; promastigotes; 16.66 µM, 24 h).
The inhibition was 1% and -1% (parasite viability, resazurin; promastigotes; 0.033 µM).

Block 2
Structure (SMILES): COc1cccc(-c2cc(=O)c3ccccc3o2)c1N
Read-out: enzyme activity
Action: inhibitor
Tested at: 0.5 µM
Relative to: control
FRK (Homo sapiens, UniProt P42685) — remaining activity: 89.5%.
The remaining activity was 94.6% (ULK3 (Homo sapiens, UniProt Q6PHR2)).
LCK (Homo sapiens, UniProt P06239) — remaining activity: 99%.
For WEE1 (Homo sapiens, UniProt P30291): remaining activity read 83%.
ABL2 (Homo sapiens, UniProt P42684) — remaining activity: 96.8%.
The remaining activity was 94.3% (TBK1 (Homo sapiens, UniProt Q9UHD2)).
It gave 103% for remaining activity (MAP3K5 (Homo sapiens, UniProt Q99683)).
ACVR1B (Homo sapiens, UniProt P36896) — remaining activity: 92.5%.
For MAP3K14 (Homo sapiens, UniProt Q99558): remaining activity read 108%.
For MAP2K2 (Homo sapiens, UniProt P36507): remaining activity read 69.2%.
The remaining activity was 96.9% (JAK3 (Homo sapiens, UniProt P52333)).
MST1R (Homo sapiens, UniProt Q04912) — remaining activity: 93.4%.
For MAPK3 (Homo sapiens, UniProt P27361): remaining activity read 102%.
CSNK1G3 (Homo sapiens, UniProt Q9Y6M4) — remaining activity: 97.7%.
It gave 93.1% for remaining activity (TEK (Homo sapiens, UniProt Q02763)).

Block 3
SMILES: O=C(O)[C@@H]1[C@@H](Cn2nnc3ccccc3c2=O)CC[C@H]1C(=O)c1ccc(OCCC2CCOCC2)cc1
Read-out: cell-free assay
Technique: competition with immobilised ligand
Tested at: 1 µM
The remaining binding was 100% (Tyrosine-protein kinase ABL1, non-phosphorylated (ABL1, Homo sapiens, UniProt P00519, T315I)).
It gave 90% for remaining binding (CDK18 (Homo sapiens, UniProt Q07002)).
The remaining binding was 100% (MAP3K9 (Homo sapiens, UniProt P80192)).
For CHUK (Homo sapiens, UniProt O15111): remaining binding read 100%.
For ULK3 (Homo sapiens, UniProt Q6PHR2): remaining binding read 100%.
For STK26 (Homo sapiens, UniProt Q9P289): remaining binding read 100%.
It gave 100% for remaining binding (FGFR1 (Homo sapiens, UniProt P11362)).
The remaining binding was 100% (RPS6KB1 (Homo sapiens, UniProt P23443)).
It gave 100% for remaining binding (SNRK (Homo sapiens, UniProt Q9NRH2)).
For MYLK3 (Homo sapiens, UniProt Q32MK0): remaining binding read 72%.
CHEK2 (Homo sapiens, UniProt O96017) — remaining binding: 100%.
It gave 93% for remaining binding (FLT3 (Homo sapiens, UniProt P36888, D835V)).
EGFR (Homo sapiens, UniProt P00533, A750P/del747-749) — remaining binding: 100%.

Block 4
Host: human
Sample: microsomes or S9
Tested at: 2 µM
Time: 0.5 h
The remaining compound of `CS(=O)(=O)NCC1CCC(C(=O)NCC2CCS(=O)(=O)C2)CC1` (stereo not drawn) is reported as greater than 99%.
For `Cc1cc(N2CCC(C(=O)NC(C)(C)C)CC2)nc(Nc2ccc(C#N)c(C(F)(F)F)c2)n1`, the remaining compound was 83.8%.
With `Clc1cc2nc(-c3cn[nH]c3)[nH]c2cc1Cl` the remaining compound was 40%.
The remaining compound of `CC(=O)c1cccc(N(CC(=O)Nc2ccc(S(=O)(=O)N3CCCC3)cc2)S(C)(=O)=O)c1` is reported as 25.5%.
For `CSc1nnc(N2C(N)=C(C#N)C3(C(=O)Nc4ccc(F)cc43)C3=C2CC(C)(C)CC3=O)s1` (stereo not drawn), the remaining compound was 75.1%.
The remaining compound of `Cc1n[nH]c(C)c1C12CC3CC(CC(CC(=O)O)(C3)C1)C2` is reported as 99.9%.
`CCOC(=O)CNC(=O)N1Cc2c(sc3c2CCCC3)-n2cccc2C1C(C)C` (stereo not drawn) has a remaining compound of less than 1%.
For `COC(=O)c1c(C)nc2c(c1OS(=O)(=O)C(F)(F)F)CCN2C`, the remaining compound was 22.9%.
With `CCc1c(C(=O)NNc2oc(C(C)C)nc2C#N)cnn1C(C)(C)C` the remaining compound was 2.91%.
The remaining compound of `CNC(=O)c1cc2c(F)c(O)ccc2n1-c1cc(F)c(O)c(F)c1` is reported as greater than 99%.

A few entries again (block 4):
With `Clc1cc2nc(-c3cn[nH]c3)[nH]c2cc1Cl` the remaining compound was 40%.
The remaining compound of `CC(=O)c1cccc(N(CC(=O)Nc2ccc(S(=O)(=O)N3CCCC3)cc2)S(C)(=O)=O)c1` is reported as 25.5%.
For `CSc1nnc(N2C(N)=C(C#N)C3(C(=O)Nc4ccc(F)cc43)C3=C2CC(C)(C)CC3=O)s1` (stereo not drawn), the remaining compound was 75.1%.
The remaining compound of `Cc1n[nH]c(C)c1C12CC3CC(CC(CC(=O)O)(C3)C1)C2` is reported as 99.9%.
`CCOC(=O)CNC(=O)N1Cc2c(sc3c2CCCC3)-n2cccc2C1C(C)C` (stereo not drawn) has a remaining compound of less than 1%.
For `COC(=O)c1c(C)nc2c(c1OS(=O)(=O)C(F)(F)F)CCN2C`, the remaining compound was 22.9%.
With `CCc1c(C(=O)NNc2oc(C(C)C)nc2C#N)cnn1C(C)(C)C` the remaining compound was 2.91%.
